# Experimental data from different studies.
# Lines come from different studies, so protocols differ. “And” joins repeats or separate records; there may be more than shown. ± marks the error that the study gave.
Structure (SMILES),test,system,setting,scale,measurement,value
N#Cc1ccn2c(-c3ccncc3)c(-c3ccc(F)cc3)nc2c1,"kinase binding, competitor, MIB/MS competition, measured: IKS1",Candida albicans cell lysate,10 µM,baseline: DMSO,log2 fold change,-0.31
Cc1ccc(C(=O)OCc2ccc([C@@H](CN)C(=O)Nc3ccc4cnccc4c3)cc2)c(C)c1,tonometry,"Macaca cyclopis, ocular normotensive","ocular, 0.02%, 72 h",,IOP,17.8 mmHg
OC(CCN1CCCCC1)(c1ccccc1)C1CC2C=CC1C2 (stereo not shown),resting-state EEG,healthy elderly humans,"oral, 4 mg, eyes closed, LS mean",,"EEG theta power, O2 Pz",7.1 µV²
COc1ccc(F)cc1C(=O)NCc1ccc(-c2nn([C@@H](C)C(F)(F)F)c(N)c2C(N)=O)cc1,,Waldenström macroglobulinemia patients,"dose not given, all efficacy-evaluable patients",,overall response rate,68%
CC1(C)CCC2(CC1)N[C@@H](C(=O)N[C@@H]1CC[C@@H](C(N)=O)OC1)[C@H](c1ccnc(Cl)c1F)[C@]21C(=O)Nc2cc(Cl)ccc21,,"human, solid tumours","90 mg/day, RECIST",baseline: patients,stable disease,50%
CN(C(=O)n1cnc(-c2ccc[n+]([O-])c2)c1)C1CCCCC1,,"mice, formalin paw test","oral, 3 mg/kg, late phase","baseline: vehicle, direction not given",change in licking score,-41%
O=S(=O)(NCCNC/C=C/c1ccc(Br)cc1)c1cccc2cnccc12,,mouse zygotes,"20 µM, 96 h post-hCG",,embryos reaching blastocyst,0% and 11.8%
NCC(=O)Nc1cncc(-c2nn3c(=O)cc(N4CCNCC4)nc3s2)c1,"ADP-induced platelet aggregation, light transmission aggregometry","human, stable CAD on aspirin, platelets ex vivo","subcutaneous, 0.075 mg/kg, 120 min post-dose, added: ADP 20 µM",,inhibition,28.8%
COc1ccc(Oc2cc(N(C)CCOc3ccc(CC4SC(=O)NC4=O)cc3)ncn2)cc1 (stereo not shown),,type 2 diabetes patients,0.5 mg once daily,,HbA1c,7.7 ± 1.23%
c1ccc(-c2n[nH]cc2-c2ccnc3ccccc23)nc1,"kinase binding, competitor, MIB/MS competition, measured: GIN4",Candida albicans cell lysate,10 µM,baseline: DMSO,log2 fold change,1.69
C[C@H]1C[C@H]2CSC(N)=N[C@@]2(c2nc(NC(=O)c3ccc(OC(F)F)cn3)cs2)CO1,,"healthy adults, fed, plasma","oral, 200 mg single dose, 48 h","baseline: baseline, placebo-adjusted",total plasma Aβ change,-59.6%
C=CC(=O)Nc1cc(Nc2ncc(C(=O)OC(C)C)c(-c3cn(C)c4ccccc34)n2)c(OC)cc1N(C)CCN(C)C,,EGFR-mutant NSCLC patients,dose not given,,responders with duration ≥ 12 months,19%
CCOC(=O)c1c(NC(=O)CNC(C)C)sc2c1CCCCC2,,APP J20 mice,"intraperitoneal, 50 mg/kg, first 2 h, NREM sleep",,epileptiform spike rate,90.5 ± 16.8 spikes/h
Cn1cc(Nc2nccc(-c3ccc4c(c3)CN(C3COC3)CC[C@H]4NC(=O)c3cn(C(C)(C)C)nn3)n2)cn1,measured: pyrimidine ribonucleotide salvage,"splenic B cells, mice","30 mg/kg, IgD-activated in vivo","baseline: vehicle, direction not given",pathway activation z-score,-0.277
C[C@@H](NC(=O)N1C(=O)[C@H](Cc2ccnc(N)c2)[C@H]1C(=O)O)C1CCCCC1,,human,"iv infusion, 0.6 mg/kg/h, 24 h",,time to aPTT Emax,48 h
N#Cc1ccc2c(c1)[C@H]1CCCN(C(=O)c3ccc4[nH]cnc4c3)[C@H]1C2,measured: fasting plasma insulin,"human, Phase II trial","oral, 240 mg once daily, day 28, adjusted mean, SE",,change from baseline,11.3 pmol/L
O=C(O)CNC(=O)Cc1ccccc1,,"ventricular cardiomyocytes, C57BL/6 mouse","dose not given, 0.516 s",,sarcomere length,1.62 µm
N#Cc1ccc2c(-c3ccncc3)c(-c3ccc(F)cc3)nn2c1,"kinase binding, competitor, MIB/MS competition, measured: IKS1",Candida albicans cell lysate,1 µM,baseline: DMSO,log2 fold change,-0.162
COC[C@@H](c1ccc(C(F)(F)F)cc1)N1CCN(C2(C)CCN(C(=O)c3c(C)ncnc3C)CC2)C[C@@H]1C,,"human, HIV infected","dose not given, week 2, Cmin >54 ng/mL",,HIV-1 RNA decrease,1.35 log10 copies/mL
C=CCn1c(=O)c2cnc(Nc3ccc(N4CCN(C)CC4)cc3)nc2n1-c1ccc2c(n1)[C@@](O)(CC)CC2,,"OVCAR-3 xenograft, NOD/SCID mice","oral, 80 mg/kg, day 56, once daily intermittent",,tumour growth inhibition,91.6%
COc1ncc(-c2nc3c(n2C(C)C)[C@H](c2ccc(Cl)cc2)N(c2cc(Cl)cn(C)c2=O)C3=O)c(OC)n1,International Working Group criteria,human acute myeloid leukemia patients,"oral, 120 mg, response TF, high-dose, recommended dose for expansion",,best overall response,62.5%
C=CC[C@@H]1/C=C(\C)C[C@H](C)C[C@H](OC)[C@H]2O[C@@](O)(C(=O)C(=O)N3CCCC[C@H]3C(=O)O[C@H](/C(C)=C/[C@@H]3CC[C@@H](O)[C@H](OC)C3)[C@H](C)[C@@H](O)CC1=O)[C@H](C)C[C@@H]2OC,"qPCR, measured: Egf","Wistar Kyoto rats, male, kidney cortex","ip, 0.5 mg/kg/day, day 28",baseline: vehicle,mRNA level,decreased
O=C1Nc2cc3[nH]nc(-c4ccncc4)c3cc2CN1Cc1ccccc1,RECIST v1.1,"human, relapsed or refractory advanced solid tumours","intravenous, 7.2 mg/kg, pooled schedules",,"complete response, best response",0%
Cc1cc(Nc2cc3ncccc3c(N[C@@H]3C[C@H]4CC[C@@H](C3)N4CCC#N)n2)n[nH]1,,moderate-severe ulcerative colitis patients,"80 mg, day 28, Mayo subscore, unit not given",baseline: baseline,change in stool frequency,-0.4
N#Cc1ccc2c(c1)[C@H]1CCCN(C(=O)c3ccc4[nH]cnc4c3)[C@H]1C2,,"human, plasma","160 mg, day 15, 360 h",baseline: placebo and baseline,change in 1.5-AHG,-3.3%
CCCCCCCCCCC1NCCc2cc(O)c(O)cc21 (stereo not shown),ferrozine,cell-free,"100 µM, DMSO solvent",,Fe2+ chelation,23.6 ± 4.32%
COc1cc2cc(-c3ccc(CC(=O)Nc4cc(C(C)(C)C(F)(F)F)no4)cn3)cnc2cc1OC,RECIST v1.1,RET-altered advanced solid tumour patients,"oral, 10 mg once daily, phase I",,partial response as best response,0%
CC(C)[C@H](C(=O)Nc1ccc(C(=O)NO)cc1)c1ccccc1,volumetric MRI,"human, left foramen magnum tumour","dose not given, day 373",,tumour volume,2.4 cm3
O=C(COc1ccc(Cl)cc1)NC12CC(c3nnc([C@H]4C[C@@H](OC(F)(F)F)C4)o3)(C1)C2,,"healthy human, PBMC","oral, 15 mg single dose, day 1, 4 h post-dose, median, added: sodium arsenite ex vivo",baseline: baseline,ATF4 protein change,-11%
NC(=O)c1cnc2[nH]ccc2c1N[C@@H]1[C@@H]2CC3C[C@H]1C[C@@](O)(C3)C2,flow cytometry,"Caucasian healthy men, blood","oral, 60 mg single dose, 24 h",baseline: baseline,total memory T-cell change,-0.02%
Cc1sc2c(c1C)C(c1ccc(Cl)cc1)=N[C@@H](CC(=O)NCCCCCCCCNC(=O)COc1cccc3c1C(=O)N(C1CCC(=O)NC1=O)C3=O)c1nnc(C)n1-2 (stereo partly shown),flow cytometry,"mice, 4T1 tumour, tumour",dose not given,,M1 macrophages,1.83% and 1.86% and 1.89% and 1.94%
CC[C@@H]1[C@H](F)C(=O)N[C@@H]1COc1nccc2cc(C(N)=O)c(OC)cc12,"ATP-site probe binding, ActivX profiling, measured: MARK1, MARK2",THP-1 cell lysate,"0.2 mM, Lys1 site",,inhibition,8.4%
O=C(/C=C/c1ccc(O)c(O)c1/C=C/c1ccc(O)c(O)c1)O[C@H](Cc1ccc(O)c(O)c1)C(=O)O,,isolated myocardial tissue,10 µM,,LVSP,55.3 mmHg
Cc1cc(C)c(CNC(=O)c2cc(Cl)c3c(c2C)O[C@@](C)([C@H]2CC[C@H](N(C)C)CC2)O3)c(=O)[nH]1,IWG 2007 criteria,"human, relapsed/refractory PTCL not otherwise specified",dose not given,,best overall response CR,27%

# Excerpt of the above:
Structure (SMILES),test,system,setting,scale,measurement,value
c1ccc(-c2n[nH]cc2-c2ccnc3ccccc23)nc1,"kinase binding, competitor, MIB/MS competition, measured: GIN4",Candida albicans cell lysate,10 µM,baseline: DMSO,log2 fold change,1.69
C[C@H]1C[C@H]2CSC(N)=N[C@@]2(c2nc(NC(=O)c3ccc(OC(F)F)cn3)cs2)CO1,,"healthy adults, fed, plasma","oral, 200 mg single dose, 48 h","baseline: baseline, placebo-adjusted",total plasma Aβ change,-59.6%
C=CC(=O)Nc1cc(Nc2ncc(C(=O)OC(C)C)c(-c3cn(C)c4ccccc34)n2)c(OC)cc1N(C)CCN(C)C,,EGFR-mutant NSCLC patients,dose not given,,responders with duration ≥ 12 months,19%
